Assay results collected from several papers.
Protocols differ between the studies behind these lines. ± gives the spread as reported.

N=C(N)NCCC[C@@H]1NC(=O)[C@H](CCCCNC(=O)CC[C@H](NC(=O)CCOCCOCCOCCOCCNC(=O)CC[C@H](NC(=O)CN2CCN(CC(=O)O)CCN(CC(=O)O)CCN(CC(=O)O)CC2)C(=O)NCCOCCOCCOCCOCCC(=O)N[C@@H](CCC(=O)NCCCC[C@@H]2NC(=O)[C@@H](Cc3ccccc3)NC(=O)[C@H](CC(=O)O)NC(=O)CNC(=O)[C@H](CCCNC(=N)N)NC2=O)C(=O)NCCCC[C@@H]2NC(=O)[C@@H](Cc3ccccc3)NC(=O)[C@H](CC(=O)O)NC(=O)CNC(=O)[C@H](CCCNC(=N)N)NC2=O)C(=O)NCCCC[C@@H]2NC(=O)[C@@H](Cc3ccccc3)NC(=O)[C@H](CC(=O)O)NC(=O)CNC(=O)[C@H](CCCNC(=N)N)NC2=O)NC(=O)[C@@H](Cc2ccccc2)NC(=O)[C@H](CC(=O)O)NC(=O)CNC1=O [indium-111 labelled] gave a tissue uptake of 5.5 ± 1.61 %ID/g (female athymic nude mice, intestine; intravenous, 3 µCi, 0.5 h, U-87 MG glioma xenograft).
CCCC[C@H](NC(=O)[C@H](Cc1cccs1)NC(=O)[C@H](Cc1c[nH]cn1)NC(=O)CCNC(=O)[C@@H](NC(=O)[C@H](C)NC(=O)[C@H](Cc1c[nH]c2ccccc12)NC(=O)[C@H](CCC(N)=O)NC(=O)[C@H](Cc1cccs1)NC(=O)CN1CCC(NC(=O)CN(CCN(CCN(CC(=O)O)CC(=O)O)CC(=O)O)CC(=O)O)CC1)C(C)C)C(N)=O [indium-111 labelled] gave an intact peptide of 9.8 ± 0.5% (radio-HPLC; male Swiss nu/nu mice, blood; intravenous, 1 nmol, 5 min).
CCCC[C@H](NC(=O)CCCCCCCNC(=O)c1ccc(NN)nc1)C(=O)N[C@H]1CC(=O)NCCCC[C@@H](C(N)=O)NC(=O)[C@H](Cc2c[nH]c3ccccc23)NC(=O)[C@H](CCCNC(=N)N)NC(=O)[C@@H](Cc2ccccc2)NC(=O)[C@H](Cc2c[nH]cn2)NC1=O [technetium-99m labelled] gave an uptake of 0.07 ± 0.02 %ID/g (C57 mouse, B16/F1 melanoma, heart; intravenous, 24 h).
Under “degradation rate constant”, CC(C)C[C@@H]1NC(=O)[C@H](C(C)C)NC(=O)[C@H](CO)NC(=O)CNC(=O)CNC(=O)[C@H](CCCNC(=N)N)NC(=O)[C@@H]2CCCN2C(=O)[C@@H](NC(=O)CC[C@H](NC(=O)c2ccc(N(C)Cc3cnc4nc(N)nc(N)c4n3)cc2)C(=O)O)C(C)(C)SSC[C@@H](C(=O)O)NC(=O)CNC(=O)[C@H]([C@@H](C)O)NC(=O)[C@H](C(C)C)NC1=O is recorded as 0.0032 h⁻¹ (HPLC; Acetate buffer; pH 4.0, 70 °C).
N=C(N)NCCC[C@@H]1NC(=O)[C@H](CCCCNC(=O)CCOCCOCCOCCOCCNC(=O)CN2CCN(CC(=O)O)CCN(CC(=O)O)CCN(CC(=O)O)CC2)NC(=O)[C@@H](Cc2ccccc2)NC(=O)[C@H](CC(=O)O)NC(=O)CNC1=O [indium-111 labelled] has a tissue uptake of 2.72 ± 0.5 %ID/g (female athymic nude mice, intestine; intravenous, 3 µCi, 0.5 h, U-87 MG glioma xenograft).
CSCC[C@H](NC(=O)[C@H](CC(C)C)NC(=O)[C@H](Cc1c[nH]cn1)NC(=O)CNC(=O)[C@@H](NC(=O)[C@H](C)NC(=O)[C@H](Cc1c[nH]c2ccccc12)NC(=O)[C@H](CCC(N)=O)NC(=O)CCOCCOCCOCCOCCNC(=O)CCCN1C(=O)CC(SC[C@H](NC(=O)[C@H](CCCCNC(=O)c2ccc3c(c2)C(=O)OC32c3ccc(O)cc3Oc3cc(O)ccc32)NC(=O)CC[C@H](C(=O)O)N2CCN(CC(=O)O)CCN(CC(=O)O)CC2)C(N)=O)C1=O)C(C)C)C(N)=O (stereo partly drawn) has a logD of -3.27 (shake-flask; 1-octanol/phosphate buffer; pH 7.4, 68Ga-labelled).
CC(C)C[C@H](NC(=O)[C@@H]1CCCN1C(=O)[C@H](CCCCN)NC(=O)[C@@H](N)CO)C(=O)N1CCC[C@H]1C(=O)N[C@@H](CCC(=O)O)C(=O)N[C@H](C(=O)N[C@H](C(=O)N[C@@H](CC(=O)O)C(=O)N[C@@H](CCC(=O)O)C(=O)N[C@@H](Cc1ccc(O)cc1)C(=O)N[C@@H](Cc1cn(CCOCCOCCOCCNC(=O)CCc2ccc(O)c(CN(CCN(CC(=O)O)Cc3cc(CCC(=O)NCCCC[C@H](NC(=O)N[C@@H](CCC(=O)O)C(=O)O)C(=O)O)ccc3O)CC(=O)O)c2)nn1)C(=O)O)[C@@H](C)O)C(C)C [gallium-68 labelled] — result for “standardized uptake value”: 0.12 g/g (NMRI nu/nu mice, LNCaP tumour, heart; 10 MBq, high molar activity).
C[C@@H](O)[C@H](NC(=O)[C@@H]1CSSC[C@H](NC(=O)[C@@H](Cc2ccccc2)NC(=O)CN2CCN(CC(N)=O)CCN(CC(N)=O)CCN(CC(N)=O)CC2)C(=O)N[C@@H](Cc2ccc(O)cc2)C(=O)N[C@H](Cc2c[nH]c3ccccc23)C(=O)N[C@@H](CCCCN)C(=O)N[C@@H]([C@@H](C)O)C(=O)N1)C(=O)O [lead-212 labelled] gave a survival of 100% (athymic nude mice; 20 µCi single dose).
With N=C(N)NCCC[C@@H]1NC(=O)[C@H](CCCCNC(=O)CNC(=O)CNC(=O)CNC(=O)CC[C@H](NC(=O)CCOCCOCCOCCOCCNC(=O)CC[C@H](NC(=O)CN2CCN(CC(=O)O)CCN(CC(=O)O)CCN(CC(=O)O)CC2)C(=O)NCCOCCOCCOCCOCCC(=O)N[C@@H](CCC(=O)NCC(=O)NCC(=O)NCC(=O)NCCCC[C@@H]2NC(=O)[C@@H](Cc3ccccc3)NC(=O)[C@H](CC(=O)O)NC(=O)CNC(=O)[C@H](CCCNC(=N)N)NC2=O)C(=O)NCC(=O)NCC(=O)NCC(=O)NCCCC[C@@H]2NC(=O)[C@@H](Cc3ccccc3)NC(=O)[C@H](CC(=O)O)NC(=O)CNC(=O)[C@H](CCCNC(=N)N)NC2=O)C(=O)NCC(=O)NCC(=O)NCC(=O)NCCCC[C@@H]2NC(=O)[C@@H](Cc3ccccc3)NC(=O)[C@H](CC(=O)O)NC(=O)CNC(=O)[C@H](CCCNC(=N)N)NC2=O)NC(=O)[C@@H](Cc2ccccc2)NC(=O)[C@H](CC(=O)O)NC(=O)CNC1=O [indium-111 labelled] the tissue uptake was 0.42 ± 0.11 %ID/g (athymic nude mice, female, U-87 MG glioma xenograft, bone; intravenous, 3 µCi, 72 h).
CCCC[C@H](NC(=O)CNC(=O)CNC(=O)c1ccc(NN)nc1)C(=O)N[C@H]1CC(=O)NCCCC[C@@H](C(N)=O)NC(=O)[C@H](Cc2c[nH]c3ccccc23)NC(=O)[C@H](CCCNC(=N)N)NC(=O)[C@@H](Cc2ccccc2)NC(=O)[C@H](Cc2c[nH]cn2)NC1=O [technetium-99m labelled] has an uptake of 0.09 ± 0.06 %ID/g (C57 mouse, B16/F1 melanoma, spleen; 2 h, added: L-lysine 12 mg).
For CSCC[C@H](NC(=O)[C@H](CC(C)C)NC(=O)[C@H](Cc1c[nH]cn1)NC(=O)CNC(=O)[C@@H](NC(=O)[C@H](C)NC(=O)[C@H](Cc1c[nH]c2ccccc12)NC(=O)[C@H](CCC(N)=O)NC(=O)CCCCCNC(=O)CN1CCN(CC(=O)O)CCN(CC(=O)O)CC1)C(C)C)C(N)=O [gallium-68 labelled], the intact parent was roughly 28.5% (radio-HPLC; nude mice, PC-3 tumour, tumour homogenate; intravenous, 37 MBq, 30 min).
N=C(N)NCCC[C@@H]1NC(=O)[C@H](CCCCNC(=O)CCOCCOCCOCCOCCNC(=O)CC[C@H](NC(=O)CCOCCOCCOCCOCCNC(=O)CC[C@H](NC(=O)CN2CCN(CC(=O)O)CCN(CC(=O)O)CCN(CC(=O)O)CC2)C(=O)NCCOCCOCCOCCOCCC(=O)N[C@@H](CCC(=O)NCCOCCOCCOCCOCCC(=O)NCCCC[C@@H]2NC(=O)[C@@H](Cc3ccccc3)NC(=O)[C@H](CC(=O)O)NC(=O)CNC(=O)[C@H](CCCNC(=N)N)NC2=O)C(=O)NCCOCCOCCOCCOCCC(=O)NCCCC[C@@H]2NC(=O)[C@@H](Cc3ccccc3)NC(=O)[C@H](CC(=O)O)NC(=O)CNC(=O)[C@H](CCCNC(=N)N)NC2=O)C(=O)NCCOCCOCCOCCOCCC(=O)NCCCC[C@@H]2NC(=O)[C@@H](Cc3ccccc3)NC(=O)[C@H](CC(=O)O)NC(=O)CNC(=O)[C@H](CCCNC(=N)N)NC2=O)NC(=O)[C@@H](Cc2ccccc2)NC(=O)[C@H](CC(=O)O)NC(=O)CNC1=O [indium-111 labelled] gave an intact compound of roughly 45% (radio-HPLC; athymic nude mice, feces; intravenous, 120 min post-injection).
CSCC[C@H](NC(=O)[C@H](CC(C)C)NC(=O)[C@H](Cc1c[nH]cn1)NC(=O)CNC(=O)[C@@H](NC(=O)[C@H](C)NC(=O)[C@H](Cc1c[nH]c2ccccc12)NC(=O)[C@H](CCC(N)=O)NC(=O)CCCCCNC(=O)CNC(=O)CNC(=O)CNC(=O)CSC(C)=O)C(C)C)C(N)=O [technetium-99m labelled] has a tissue uptake of 0.34 ± 0.08 %ID/g (nude mouse, PC-3 xenograft, heart; 30 min).
N=C(N)NCCC[C@@H]1NC(=O)[C@H](CCCCNC(=O)CC[C@H](NC(=O)CCOCCOCCOCCOCCNC(=O)CN2CCN(CC(=O)O)CCN(CC(=O)O)CCN(CC(=O)O)CC2)C(=O)NCCCC[C@@H]2NC(=O)[C@@H](Cc3ccccc3)NC(=O)[C@H](CC(=O)O)NC(=O)CNC(=O)[C@H](CCCNC(=N)N)NC2=O)NC(=O)[C@@H](Cc2ccccc2)NC(=O)[C@H](CC(=O)O)NC(=O)CNC1=O [indium-111 labelled] gave a tissue uptake of 5.88 ± 2.42 %ID/g (female athymic nude mice, intestine; intravenous, 3 µCi, 4 h, U-87 MG glioma xenograft).
The tumour uptake of N=C(N)NCCC[C@@H]1NC(=O)[C@H](CCCCNC(=O)CNC(=O)CNC(=O)CNC(=O)CC[C@H](NC(=O)c2ccc(NN=Cc3ccccc3S(=O)(=O)O)nc2)C(=O)NCC(=O)NCC(=O)NCC(=O)NCCCC[C@@H]2NC(=O)[C@@H](Cc3ccccc3)NC(=O)[C@H](CC(=O)O)NC(=O)CNC(=O)[C@H](CCCNC(=N)N)NC2=O)NC(=O)[C@@H](Cc2ccccc2)NC(=O)[C@H](CC(=O)O)NC(=O)CNC1=O [technetium-99m labelled] is reported as 9.11 ± 1.83 %ID/g (gamma counting; female athymic nu/nu mice, MDA-MB-435 breast cancer xenograft, tumour; intravenous, 120 min post-injection).

For quick reference, copied from above:
CC(C)C[C@H](NC(=O)[C@@H]1CCCN1C(=O)[C@H](CCCCN)NC(=O)[C@@H](N)CO)C(=O)N1CCC[C@H]1C(=O)N[C@@H](CCC(=O)O)C(=O)N[C@H](C(=O)N[C@H](C(=O)N[C@@H](CC(=O)O)C(=O)N[C@@H](CCC(=O)O)C(=O)N[C@@H](Cc1ccc(O)cc1)C(=O)N[C@@H](Cc1cn(CCOCCOCCOCCNC(=O)CCc2ccc(O)c(CN(CCN(CC(=O)O)Cc3cc(CCC(=O)NCCCC[C@H](NC(=O)N[C@@H](CCC(=O)O)C(=O)O)C(=O)O)ccc3O)CC(=O)O)c2)nn1)C(=O)O)[C@@H](C)O)C(C)C [gallium-68 labelled] — result for “standardized uptake value”: 0.12 g/g (NMRI nu/nu mice, LNCaP tumour, heart; 10 MBq, high molar activity).
